Measurements from different studies.
A part holds a random share of what one study measured. Several values in a cell are separate wells, animals, samples, runs or records.
Chain of UniProt O14730 (whole entry, looked up): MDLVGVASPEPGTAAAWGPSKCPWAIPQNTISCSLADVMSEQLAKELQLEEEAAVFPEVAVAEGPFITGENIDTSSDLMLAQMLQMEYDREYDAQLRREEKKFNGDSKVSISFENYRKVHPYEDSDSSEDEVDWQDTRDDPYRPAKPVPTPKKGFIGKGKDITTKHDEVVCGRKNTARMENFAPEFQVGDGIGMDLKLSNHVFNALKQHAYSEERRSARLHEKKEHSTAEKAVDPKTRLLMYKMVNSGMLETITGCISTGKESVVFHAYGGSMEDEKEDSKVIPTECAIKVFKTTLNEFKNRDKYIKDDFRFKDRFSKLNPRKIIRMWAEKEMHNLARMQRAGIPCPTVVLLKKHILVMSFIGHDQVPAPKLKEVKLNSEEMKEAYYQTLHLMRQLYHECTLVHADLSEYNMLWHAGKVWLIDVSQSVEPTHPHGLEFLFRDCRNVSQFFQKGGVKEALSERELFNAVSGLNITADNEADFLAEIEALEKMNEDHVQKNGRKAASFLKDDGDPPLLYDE
Chain of UniProt Q96PF2 (whole entry, looked up): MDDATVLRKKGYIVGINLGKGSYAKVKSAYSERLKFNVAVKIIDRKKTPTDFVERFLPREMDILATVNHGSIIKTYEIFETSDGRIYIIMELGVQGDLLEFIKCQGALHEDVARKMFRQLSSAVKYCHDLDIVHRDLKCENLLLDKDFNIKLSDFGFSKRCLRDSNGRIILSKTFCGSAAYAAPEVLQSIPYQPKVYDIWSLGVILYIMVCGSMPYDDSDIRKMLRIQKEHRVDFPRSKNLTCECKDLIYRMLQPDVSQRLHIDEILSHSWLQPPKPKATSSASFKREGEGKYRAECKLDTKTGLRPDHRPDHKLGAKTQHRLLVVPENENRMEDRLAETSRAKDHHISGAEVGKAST
Chain of UniProt P07949 (whole entry, looked up): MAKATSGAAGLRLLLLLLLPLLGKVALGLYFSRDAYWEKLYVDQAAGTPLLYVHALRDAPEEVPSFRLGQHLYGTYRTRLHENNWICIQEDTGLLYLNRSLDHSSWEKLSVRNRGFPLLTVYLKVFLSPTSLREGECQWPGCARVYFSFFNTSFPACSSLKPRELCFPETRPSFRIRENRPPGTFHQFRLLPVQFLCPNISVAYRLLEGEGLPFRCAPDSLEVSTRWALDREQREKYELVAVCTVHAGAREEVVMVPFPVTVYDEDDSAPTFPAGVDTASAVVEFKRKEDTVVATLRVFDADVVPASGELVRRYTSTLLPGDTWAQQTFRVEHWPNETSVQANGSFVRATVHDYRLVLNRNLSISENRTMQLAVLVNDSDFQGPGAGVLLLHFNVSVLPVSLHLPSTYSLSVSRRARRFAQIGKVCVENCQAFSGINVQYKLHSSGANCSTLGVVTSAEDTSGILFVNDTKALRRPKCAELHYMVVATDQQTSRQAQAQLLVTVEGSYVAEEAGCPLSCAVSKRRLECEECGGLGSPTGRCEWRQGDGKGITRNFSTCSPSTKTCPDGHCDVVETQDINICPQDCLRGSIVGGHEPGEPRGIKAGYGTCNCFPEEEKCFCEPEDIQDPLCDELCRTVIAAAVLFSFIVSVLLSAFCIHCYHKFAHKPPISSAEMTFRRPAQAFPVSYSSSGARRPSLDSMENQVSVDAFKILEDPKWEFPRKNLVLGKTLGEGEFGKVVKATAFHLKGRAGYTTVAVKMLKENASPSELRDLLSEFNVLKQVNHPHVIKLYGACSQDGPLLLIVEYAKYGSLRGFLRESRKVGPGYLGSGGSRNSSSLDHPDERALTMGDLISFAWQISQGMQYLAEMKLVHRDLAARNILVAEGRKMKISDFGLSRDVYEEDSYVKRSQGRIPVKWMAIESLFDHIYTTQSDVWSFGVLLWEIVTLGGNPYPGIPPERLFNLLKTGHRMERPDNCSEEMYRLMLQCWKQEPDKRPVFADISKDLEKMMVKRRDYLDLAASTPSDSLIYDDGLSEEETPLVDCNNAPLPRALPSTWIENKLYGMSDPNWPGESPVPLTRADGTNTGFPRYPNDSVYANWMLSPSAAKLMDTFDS
Chain of UniProt O75716 (whole entry, looked up): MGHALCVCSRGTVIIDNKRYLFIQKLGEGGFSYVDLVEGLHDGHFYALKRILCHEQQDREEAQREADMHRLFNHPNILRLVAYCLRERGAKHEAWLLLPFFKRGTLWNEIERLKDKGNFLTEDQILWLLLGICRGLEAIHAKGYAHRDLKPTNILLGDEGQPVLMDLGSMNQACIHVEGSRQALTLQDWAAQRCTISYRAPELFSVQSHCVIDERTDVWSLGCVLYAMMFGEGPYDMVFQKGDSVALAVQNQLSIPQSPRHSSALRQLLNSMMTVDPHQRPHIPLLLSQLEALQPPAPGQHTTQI
Chain of UniProt Q9UK32 (whole entry, looked up): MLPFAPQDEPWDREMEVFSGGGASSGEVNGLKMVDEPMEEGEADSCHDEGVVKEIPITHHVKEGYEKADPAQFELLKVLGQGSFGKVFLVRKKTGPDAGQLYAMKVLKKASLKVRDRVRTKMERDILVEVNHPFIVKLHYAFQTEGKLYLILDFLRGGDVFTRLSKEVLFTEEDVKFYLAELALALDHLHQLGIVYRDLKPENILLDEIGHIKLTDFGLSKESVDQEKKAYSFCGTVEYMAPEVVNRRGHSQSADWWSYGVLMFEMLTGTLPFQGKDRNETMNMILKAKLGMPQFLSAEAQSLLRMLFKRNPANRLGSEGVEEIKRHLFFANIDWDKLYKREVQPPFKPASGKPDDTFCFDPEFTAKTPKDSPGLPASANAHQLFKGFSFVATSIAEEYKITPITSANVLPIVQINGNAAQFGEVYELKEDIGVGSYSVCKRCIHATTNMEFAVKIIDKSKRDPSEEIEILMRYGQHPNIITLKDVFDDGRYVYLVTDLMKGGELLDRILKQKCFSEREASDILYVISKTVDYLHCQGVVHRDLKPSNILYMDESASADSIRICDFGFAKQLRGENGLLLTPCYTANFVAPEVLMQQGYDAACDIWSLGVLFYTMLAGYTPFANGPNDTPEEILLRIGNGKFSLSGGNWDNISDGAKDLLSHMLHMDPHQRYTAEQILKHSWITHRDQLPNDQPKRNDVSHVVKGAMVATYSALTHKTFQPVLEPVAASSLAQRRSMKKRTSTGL
Chain of UniProt Q16816 (whole entry, looked up): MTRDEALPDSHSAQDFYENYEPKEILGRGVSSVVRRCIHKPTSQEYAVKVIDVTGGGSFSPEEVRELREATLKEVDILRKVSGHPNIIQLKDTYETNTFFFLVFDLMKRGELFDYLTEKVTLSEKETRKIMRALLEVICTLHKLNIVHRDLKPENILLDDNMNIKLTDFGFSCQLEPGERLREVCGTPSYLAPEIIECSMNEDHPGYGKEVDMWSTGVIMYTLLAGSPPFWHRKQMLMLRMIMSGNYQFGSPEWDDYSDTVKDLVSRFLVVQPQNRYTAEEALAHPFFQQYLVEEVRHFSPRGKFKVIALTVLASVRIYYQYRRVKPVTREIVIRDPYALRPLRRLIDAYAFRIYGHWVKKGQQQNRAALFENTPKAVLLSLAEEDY
Chain of UniProt P16591 (whole entry, looked up): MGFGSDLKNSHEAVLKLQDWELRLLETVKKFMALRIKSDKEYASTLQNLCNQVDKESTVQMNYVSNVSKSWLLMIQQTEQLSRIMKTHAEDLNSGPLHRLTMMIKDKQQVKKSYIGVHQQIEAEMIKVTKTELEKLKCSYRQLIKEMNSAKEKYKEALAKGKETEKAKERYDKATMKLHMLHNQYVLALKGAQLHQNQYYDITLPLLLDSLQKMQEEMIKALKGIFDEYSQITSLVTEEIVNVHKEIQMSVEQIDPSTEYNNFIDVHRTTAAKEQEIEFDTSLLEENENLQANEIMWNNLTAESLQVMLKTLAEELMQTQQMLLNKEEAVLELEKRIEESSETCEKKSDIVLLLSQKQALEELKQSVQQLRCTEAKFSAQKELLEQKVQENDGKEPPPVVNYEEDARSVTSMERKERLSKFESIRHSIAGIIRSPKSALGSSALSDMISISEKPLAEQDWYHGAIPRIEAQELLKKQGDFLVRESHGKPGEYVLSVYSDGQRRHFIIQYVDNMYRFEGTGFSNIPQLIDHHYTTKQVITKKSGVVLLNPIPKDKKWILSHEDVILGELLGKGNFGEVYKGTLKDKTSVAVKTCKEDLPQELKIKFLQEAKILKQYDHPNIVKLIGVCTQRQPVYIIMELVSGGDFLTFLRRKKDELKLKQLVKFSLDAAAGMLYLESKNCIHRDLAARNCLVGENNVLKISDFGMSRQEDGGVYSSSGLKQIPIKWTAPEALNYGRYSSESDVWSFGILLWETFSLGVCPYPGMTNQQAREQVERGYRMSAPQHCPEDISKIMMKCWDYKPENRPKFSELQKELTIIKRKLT
Chain of UniProt O15530 (whole entry, looked up): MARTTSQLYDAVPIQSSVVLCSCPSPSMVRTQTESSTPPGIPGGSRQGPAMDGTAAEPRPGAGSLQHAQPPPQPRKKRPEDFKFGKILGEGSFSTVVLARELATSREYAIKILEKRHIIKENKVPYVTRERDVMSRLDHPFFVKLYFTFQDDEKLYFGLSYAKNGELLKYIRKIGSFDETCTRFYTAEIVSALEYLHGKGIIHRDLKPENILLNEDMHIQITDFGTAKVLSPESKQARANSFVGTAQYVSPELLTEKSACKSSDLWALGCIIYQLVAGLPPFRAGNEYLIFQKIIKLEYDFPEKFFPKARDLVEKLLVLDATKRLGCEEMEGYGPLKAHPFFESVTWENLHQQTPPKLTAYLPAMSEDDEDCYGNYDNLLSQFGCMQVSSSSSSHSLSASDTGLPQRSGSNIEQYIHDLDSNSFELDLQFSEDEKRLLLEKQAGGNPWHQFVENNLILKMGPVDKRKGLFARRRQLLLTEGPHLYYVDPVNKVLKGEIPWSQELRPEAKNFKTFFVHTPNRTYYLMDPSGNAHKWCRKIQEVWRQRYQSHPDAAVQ

Study 1 — Structure (SMILES): Nc1ncnc2c1cnn2-c1ccccc1; observed: enzyme activity; action: inhibitor; tested at: 0.5 µM; baseline: control
| target | remaining activity |
| --- | --- |
| EPHA4 (Homo sapiens, UniProt P54764) | 96.2% |
| PHKG1 (Homo sapiens, UniProt Q16816) | 94.2% |
| MAP4K4 (Homo sapiens, UniProt O95819) | 94.4% |
| CAMK2B (Homo sapiens, UniProt Q13554) | 97.8% |
| STK16 (Homo sapiens, UniProt O75716) | 94.3% |
| RPS6KA5 (Homo sapiens, UniProt O75582) | 89% |
| PDPK1 (Homo sapiens, UniProt O15530) | 104% |
| EPHB1 (Homo sapiens, UniProt P54762) | 97.5% |
| MAPKAPK3 (Homo sapiens, UniProt Q16644) | 96.6% |
| Cyclin-dependent kinase 6, with cyclin D3 (CDK6, Homo sapiens, UniProt Q00534) | 92.2% |
| DYRK3 (Homo sapiens, UniProt O43781) | 96.8% |
| AXL (Homo sapiens, UniProt P30530) | 110% |
| HIPK2 (Homo sapiens, UniProt Q9H2X6) | 103% |
| Cyclin-dependent kinase 4, with cyclin D3 (CDK4, Homo sapiens, UniProt P11802) | 94% |
| RPS6KA6 (Homo sapiens, UniProt Q9UK32) | 94.1% |
| BLK (Homo sapiens, UniProt P51451) | 100% |
| Cyclin-dependent kinase 1, with cyclin B (CDK1, Homo sapiens, UniProt P06493) | 102% |
| HIPK4 (Homo sapiens, UniProt Q8NE63) | 86.3% |
| STK17A (Homo sapiens, UniProt Q9UEE5) | 102% |
| TSSK2 (Homo sapiens, UniProt Q96PF2) | 106% |
| SRMS (Homo sapiens, UniProt Q9H3Y6) | 104% |
| WNK3 (Homo sapiens, UniProt Q9BYP7) | 97.2% |
| EPHB4 (Homo sapiens, UniProt P54760) | 103% |

Study 2
SMILES: CC(C)n1cnc(-c2ccc(F)cc2)c1-c1ncc(C(=O)Nc2ccc(N3CCN(C)CC3)cc2)[nH]1
| assay | system | setting | patients with adverse event [%] |
| --- | --- | --- | --- |
| Phase 2a trial, item: hypertriglyceridaemia | human, idiopathic pulmonary fibrosis | 30 mg once daily, grade 1 | 0 |
| Phase 2a trial, item: blood fibrinogen increased | human, idiopathic pulmonary fibrosis | 30 mg once daily, grade 4 | 0 |
| Phase 2a trial, item: hypocalcaemia | human, idiopathic pulmonary fibrosis | 30 mg once daily, grade 3 | 0 |
| Phase 2a trial, item: hypoalbuminaemia | human, idiopathic pulmonary fibrosis | all compound arms total, grade 3 | 0 |
| Phase 2a trial, item: blood lactate dehydrogenase increased | human, idiopathic pulmonary fibrosis | 30 mg once daily, grade 1 | 0 |
| Phase 2a trial, item: hypoalbuminaemia | human, idiopathic pulmonary fibrosis | 60 mg once daily, grade 4 | 0 |
| Phase 2a trial, item: haemorrhoids | human, idiopathic pulmonary fibrosis | 30 mg once daily, grade 5 | 0 |
| Phase 2a trial, item: blood fibrinogen increased | human, idiopathic pulmonary fibrosis | 60 mg once daily, grade 2 | 0 |
| item: abnormal liver function test, grade 5 | idiopathic pulmonary fibrosis patients | dose not given, all compound arms pooled | 0 |
| Phase 2a trial, item: hepatic steatosis | human, idiopathic pulmonary fibrosis | all compound arms total, grade 5 | 0 |
| Phase 2a trial, item: haemoptysis | human, idiopathic pulmonary fibrosis | 60 mg once daily, grade 3 | 0 |
| Phase 2a trial, item: eosinophilia myalgia syndrome | human, idiopathic pulmonary fibrosis | 60 mg once daily, grade 4 | 0 |
| Phase 2a trial, item: hypercholesterolaemia | human, idiopathic pulmonary fibrosis | all compound arms total, grade 4 | 0 |
| Phase 2a trial, item: respiratory, thoracic, mediastinal disorders | human, idiopathic pulmonary fibrosis | all compound arms, grade 5 | 0 |
| Phase 2a trial, item: hypertriglyceridaemia | human, idiopathic pulmonary fibrosis | 60 mg once daily, grade 5 | 0 |
| Phase 2a trial, item: hypocalcaemia | human, idiopathic pulmonary fibrosis | 60 mg once daily, grade 5 | 0 |
| item: prostatic calcification, maximum grade 5 | idiopathic pulmonary fibrosis patients | oral, 30 mg once daily | 0 |
| item: ALT increase | patients with idiopathic pulmonary fibrosis | 30 mg twice daily, trial, without standard of care | 0 |

Study 3 — tested at: 1 µM
Compound: O=C(NCc1ncc(C(F)(F)F)cc1Cl)c1ccc2c(c1)C1(CCS(=O)(=O)CC1)[C@H](C1CC1)N2S(=O)(=O)c1ccc(F)cc1
| target | assay | remaining binding [%] |
| --- | --- | --- |
| TSSK1B (Homo sapiens, UniProt Q9BXA7) | cell-free assay, competition with immobilised ligand | 100 |
| CSNK1A1 (Homo sapiens, UniProt P48729) | cell-free assay, competition with immobilised ligand | 92 |
| PKMYT1 (Homo sapiens, UniProt Q99640) | cell-free assay, competition with immobilised ligand | 100 |
| ACVRL1 (Homo sapiens, UniProt P37023) | binding, competition with immobilised ligand | 98 |
| CDC42BPG (Homo sapiens, UniProt Q6DT37) | competition binding | 100 |
| TRPM6 (Homo sapiens, UniProt Q9BX84) | cell-free assay, competition with immobilised ligand | 81 |
| Tyrosine-protein kinase ABL1, phosphorylated (ABL1, Homo sapiens, UniProt P00519, M351T) | cell-free assay, competition with immobilised ligand | 91 |
| LIM domain kinase 2 (LIMK2, Homo sapiens, UniProt P53671) | cell-free assay, competition with immobilised ligand | 100 |
| GSK3B (Homo sapiens, UniProt P49841) | cell-free assay, competition with immobilised ligand | 87 |
| BUB1 (Homo sapiens, UniProt O43683) | cell-free assay, competition with immobilised ligand | 68 |
| ACVR2A (Homo sapiens, UniProt P27037) | cell-free assay, competition with immobilised ligand | 86 |
| RIOK3 (Homo sapiens, UniProt O14730) | cell-free assay, competition with immobilised ligand | 69 |
| FER (Homo sapiens, UniProt P16591) | cell-free assay, competition with immobilised ligand | 100 |
| Ribosomal protein S6 kinase alpha-2, C-terminal kinase domain (RPS6KA2, Homo sapiens, UniProt Q15349) | cell-free assay, competition with immobilised ligand | 99 |
| RET (Homo sapiens, UniProt P07949) | cell-free assay, competition with immobilised ligand | 98 |
| ANKK1 (Homo sapiens, UniProt Q8NFD2) | cell-free assay, competition with immobilised ligand | 89 |
| MAP3K6 (Homo sapiens, UniProt O95382) | cell-free assay, competition with immobilised ligand | 83 |
| LIM domain kinase 1 (LIMK1, Homo sapiens, UniProt P53667) | cell-free assay, competition with immobilised ligand | 100 |
| STK24 (Homo sapiens, UniProt Q9Y6E0) | cell-free assay, competition with immobilised ligand | 100 |
| FLT3 (Homo sapiens, UniProt P36888, N841I) | cell-free assay, competition with immobilised ligand | 58 |

Study 4 — method: Incucyte 3D growth; tested at: 30 µM; direction: higher = more growth
SMILES: CC(C)(C(=O)O)[C@H](NC(=O)Cc1cccc(I)c1)c1ccc2oc(=O)[nH]c2c1
| cell line | setting | spheroid area |
| --- | --- | --- |
| A375 | 138 h | 7.76e+07 a.u. and 8.46e+07 a.u. and 8.22e+07 a.u. and 8.84e+07 a.u. and 1e+08 a.u. and 7.38e+07 a.u. |
| A375 | 66.52 h | 2.42e+07 a.u. and 3.44e+07 a.u. and 3.38e+07 a.u. and 3.86e+07 a.u. and 4.68e+07 a.u. and 3.96e+07 a.u. |
| KP-4 | 114 h | 2.03e+07 a.u. and 1.7e+07 a.u. and 1.91e+07 a.u. and 1.61e+07 a.u. and 1.94e+07 a.u. and 1.79e+07 a.u. |
| NCI-H1437 | 180 h | 3.96e+07 a.u. and 6.08e+07 a.u. and 4.2e+07 a.u. and 4.27e+07 a.u. and 4.39e+07 a.u. and 6.5e+07 a.u. |
| NCI-H358 | 234 h | 9.04e+06 a.u. and 9.4e+06 a.u. and 1.01e+07 a.u. and 8.77e+06 a.u. and 8.93e+06 a.u. and 8.1e+06 a.u. |

For quick reference, copied from above (study 2):
| assay | system | setting | patients with adverse event [%] |
| --- | --- | --- | --- |
| Phase 2a trial, item: hypercholesterolaemia | human, idiopathic pulmonary fibrosis | all compound arms total, grade 4 | 0 |
| Phase 2a trial, item: eosinophilia myalgia syndrome | human, idiopathic pulmonary fibrosis | 60 mg once daily, grade 4 | 0 |
| Phase 2a trial, item: hypertriglyceridaemia | human, idiopathic pulmonary fibrosis | 60 mg once daily, grade 5 | 0 |
| Phase 2a trial, item: blood fibrinogen increased | human, idiopathic pulmonary fibrosis | 60 mg once daily, grade 2 | 0 |
| item: abnormal liver function test, grade 5 | idiopathic pulmonary fibrosis patients | dose not given, all compound arms pooled | 0 |
| Phase 2a trial, item: hepatic steatosis | human, idiopathic pulmonary fibrosis | all compound arms total, grade 5 | 0 |
| Phase 2a trial, item: hypertriglyceridaemia | human, idiopathic pulmonary fibrosis | 30 mg once daily, grade 1 | 0 |
| Phase 2a trial, item: blood lactate dehydrogenase increased | human, idiopathic pulmonary fibrosis | 30 mg once daily, grade 1 | 0 |
| Phase 2a trial, item: hypocalcaemia | human, idiopathic pulmonary fibrosis | 60 mg once daily, grade 5 | 0 |
